# Measured values pooled from the literature.
# Every numbered part comes from another study and shows a few of its results, in no order. Positions count from the first letter of the parent shown.

# Sample 1
# Target: RNA binding protein fox-1 homolog 2, RRM domain, GST-SBP tag (RBFOX2, Homo sapiens, UniProt O43251-10, residues 100-194)
# Method: RNA Bind-n-Seq
# Molecule type: RNA
# Medium: in vitro
# Concentration: 365 nM
# Notes: natural RNA segment, single round, ends assumed
# Reference: no-protein control
# Direction: higher = stronger binding
# Target sequence (chain): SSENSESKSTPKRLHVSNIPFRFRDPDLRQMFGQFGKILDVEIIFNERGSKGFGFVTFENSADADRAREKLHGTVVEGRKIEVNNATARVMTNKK
Sequence,RBNS enrichment (R)
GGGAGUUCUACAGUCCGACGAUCGCUUUUGGUAUUUUCAUGUGUUACCUGCAUGUGAAUUUCUCAUGACUUUGUUUUUCUAGUUUCUUUUUUUUUUCUAAGAAGAGACUUGGAACGAGUCUGAUUCAUGGUGUUGGAAUUCUCGGGUGCCAA,0.343
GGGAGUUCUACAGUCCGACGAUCGGGCUGCAGAGCAGCGUCUAGUGGACAUUCCGAGGCCAGCUCUUGGGACUGUGUAGCCUCUGCCUCCCAGGAUGUUGUCUUUCAUGUGGGAAUUUUGACAGGAUUUCUAGUGGAAUUCUCGGGUGCCAA,0.451
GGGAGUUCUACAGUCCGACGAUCGAGAGUCAGUCUGAAGAGAACACAGCCCUGGAGCCCCCCGGCCUCCGGGAAGAAGGAGAAGGAGAUGCCCAGUGUGGCCAAGGCUCUCGACACCAGGAGCUGUUGGGAGAUGGAAUUCUCGGGUGCCAA,0.71
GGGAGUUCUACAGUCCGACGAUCUGUUUACCUAUAUUUCUGGAGGCUCCUGUAUUCUAGAACCCAAUCUCUCACCUGCUUGGUUGCAAGGCUCAUAUUUUUUUGUACCUUUCCUAUAGAUUCUGUAGCAUUUGUGGAAUUCUCGGGUGCCAA,0.936
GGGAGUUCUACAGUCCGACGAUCUCCGUAUUAAACGCAUUUGCAUUUUGAGAAGUGUCCUUCCCACUUCAGCCCUCCGGAGAGACUACCCUAGUCUUUCUGGGGUGUUUAUGUCCUCAGCUGAAGCCUGGCCUUGGAAUUCUCGGGUGCCAA,2.58
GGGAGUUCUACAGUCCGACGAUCGUCCUUUCUGGGACCUGUCUGCAUAACCCUCCCCAUCCUGGCUCUCCUGCAUCUUCUUACCCUUUACAAAGUCUGACCCGGCCAUUUCCAGCAGACCUGUGAGCCAGCCAUGGAAUUCUCGGGUGCCAA,1.19
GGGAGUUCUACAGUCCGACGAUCUUUCAGAGUAAAAGUAAGGCAUGUUUCUGAGCAACAUUGAUAAUUUCUUAAUUUGCAAAUUUCUUCUUAUUUUGGUACUUGGAAUAUAGUGUGAGAUUUUUUAUUUCUAAUGGAAUUCUCGGGUGCCAA,2.11
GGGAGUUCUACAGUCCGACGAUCUUUCCAGAAUAGUGUUUAGCUCACCUAGGGGGAUAUGUUUGUAUACACAUUUGCAUAUACCCACAUGGGGACAUAAGCUAAUUUUUUUACAGGACACAGAAUUCUGUUCAUGGAAUUCUCGGGUGCCAA,0.377
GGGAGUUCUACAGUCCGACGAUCGAGCCGUUGGGCGGUGCGCCAGAGGGACUGAAAUCUAUUUUGUCCCUAAAUAUUUUUUUAAAGAAUUGACCAAAUAAGUUUUUUUUUUUUUUUGCAUACUUGAGCGCUGCUGGAAUUCUCGGGUGCCAA,1.03
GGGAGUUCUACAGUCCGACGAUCACAUCAUUCUUUAAAAGAAUAGUUUAAUACUUUUGGUUAUUCCAAUCUUCAAUGUUAACCCAAAGGAUUCUGAGAUAAAAAUUAUGUGUCAUCUAAACUUCAGUUUACAGUGGAAUUCUCGGGUGCCAA,0.401
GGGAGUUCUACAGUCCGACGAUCGUGGGCAAACACUUCUCAGCUGGUCCAUUUUUACAACGAUUGAAAAUCUAGAAGCCUUCUCAUGUUGCCUGGUCACCUACUCCAUAAAGUGUGGGCCUUGCCUGGAAAGGUGGAAUUCUCGGGUGCCAA,0.349
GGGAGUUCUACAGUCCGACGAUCCUGAAUAUAGGAAGCAUAUACUUAAUUGUAACUUCUUAUGUUUAAAGGAAAAUUCUCAGUGUGAUAUACAGAUAUAUUUAAUUGUGUCAUAUUAAACCUUCUGAUUUCAUUGGAAUUCUCGGGUGCCAA,0.336

# Sample 2
# Target: ABI1, truncated, D143A, DHFR fusion (Arabidopsis thaliana)
# Method: DHFR PCA, deep sequencing
# Medium: yeast
# Notes: methotrexate growth selection, single substitutions
# Together with: (+)-ABA 58 µM
# Reference: wild-type fitted maximum
# Direction: higher = stronger binding
# Starting sequence: PYL1, truncated, DHFR fusion (Arabidopsis thaliana); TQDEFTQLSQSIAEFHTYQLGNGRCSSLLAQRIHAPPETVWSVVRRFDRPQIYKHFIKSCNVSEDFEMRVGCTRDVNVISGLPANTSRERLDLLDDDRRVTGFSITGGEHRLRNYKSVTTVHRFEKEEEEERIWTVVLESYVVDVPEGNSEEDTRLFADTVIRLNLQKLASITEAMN; partner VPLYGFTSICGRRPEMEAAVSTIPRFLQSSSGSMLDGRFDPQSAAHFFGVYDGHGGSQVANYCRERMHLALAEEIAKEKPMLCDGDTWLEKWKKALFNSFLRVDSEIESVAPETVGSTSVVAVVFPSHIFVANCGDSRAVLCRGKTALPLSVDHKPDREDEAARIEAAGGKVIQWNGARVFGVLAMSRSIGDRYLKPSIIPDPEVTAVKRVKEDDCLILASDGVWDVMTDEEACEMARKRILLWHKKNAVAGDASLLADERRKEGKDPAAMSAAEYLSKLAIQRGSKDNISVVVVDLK
Substitution,relative binding score
E4T,89.8%
F47K,-5.69%
Y141L,5.24%
T119Y,-3.12%
D95Y,34.4%
Y18F,77.5%
W41V,-8.81%
V43H,45.9%
S117Q,50.1%
E67D,90.1%
A158M,71.7%
R155C,73.9%
F15L,70.8%
D144W,9.91%
R155H,58.7%
G21H,82%
V44Q,11.8%
T173F,60.1%
R49M,77.5%
E4H,93.3%
R90D,10.2%
V142P,-3%
T173K,-5.87%

# Sample 3
# Target: CCNE2, cyclin fold, Cln2 fusion (human)
# Method: yeast growth competition, sequencing
# Medium: yeast
# Notes: weak parent motif
# Reference: not given
# Direction: higher = stronger binding
# Starting sequence: ITGB3BP docking peptide (human); MPVKRSLKLDGLL
Substitution,normalised enrichment score
K4A,0.568
R5A L7A,0.378
R5K,0.253
P2A,0.729
L9F,1.17
L13A,1.2
V3A,0.937
R5A,-0.168
L7A,0.773
S6A,0.324

# Sample 4
# Target: Interferon regulatory factor 5, full length, phosphomimetic (IRF5, Homo sapiens, UniProt Q13568-2, residues 1-514, S451D/S453D/S456D/S462D)
# Method: protein-binding microarray
# Molecule type: double-stranded DNA, one strand shown
# Medium: in vitro
# Concentration: 940 nM top
# Notes: 60-bp whole probe
# Together with: salmon DNA 0.4 mg/ml
# Reference: random background probes
# Direction: higher = stronger binding
# Shared flanks, not repeated: GCCTAGCAC … GTCTTGATTCGCTTGACGCTGCTG
Sequence,fitted relative affinity
TACAAATCCAGCCCTACAGAGTGCTAG,0.469 z-score
TACGATTTCGGGTATCGAGACGTGCTA,1.93 z-score
GACGATTTCGAGTATCGAGACGTGCTA,1.71 z-score
TCGGTGATCAGTCTGATGGTGTGCTAG,0.168 z-score
TTAGGACTGGACACTAGGTTAGTGCTA,-0.465 z-score
TTAGGTCTCGGTCTCGGTTGGTGCTAG,5.35 z-score
GACGGGCTGCTACTGCTGACGTGCTAG,-0.963 z-score
TTAGGTATCGACCATCGGTTAGTGCTA,4.94 z-score
TCCACTTTCTTAATGCTTCTGTGCTAG,1.74 z-score
TACGGTATCGGGTATCGGGACGTGCTA,5.09 z-score
TGAGAACTGGGGTATCGATTAGTGCTA,3.1 z-score
TGTTACTAGGGTTACATAATGTGCTAG,-0.211 z-score
TCATGTATGGATGTGTTACTGTGCTAG,-0.0468 z-score
TTAGGTCTCGGACTGTGTTAGTGCTAG,0.859 z-score
TCAACTCTTGCTTTTTAACTGTGCTAG,0.722 z-score
TTAGGACTGGACTTTCGGTTGGTGCTA,2.18 z-score

# Sample 5
# Target: RING finger protein unkempt homolog, zinc fingers 1-6, GST-SBP tag (UNK, Homo sapiens, UniProt Q9C0B0, residues 30-357)
# Chain of UniProt Q9C0B0 (30-357, looked up): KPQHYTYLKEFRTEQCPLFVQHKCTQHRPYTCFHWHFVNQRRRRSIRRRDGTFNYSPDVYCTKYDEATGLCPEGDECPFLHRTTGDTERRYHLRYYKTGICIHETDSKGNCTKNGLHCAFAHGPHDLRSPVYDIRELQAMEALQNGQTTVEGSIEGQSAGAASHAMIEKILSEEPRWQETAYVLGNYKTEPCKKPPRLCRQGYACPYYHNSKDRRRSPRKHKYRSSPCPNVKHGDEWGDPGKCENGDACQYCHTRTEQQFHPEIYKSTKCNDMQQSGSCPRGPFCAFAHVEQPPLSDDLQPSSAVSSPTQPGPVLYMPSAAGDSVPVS
# Method: RNA Bind-n-Seq
# Molecule type: RNA
# Medium: in vitro
# Concentration: not given
# Notes: RNA with constant flanks, human-mouse chimeric sites, ends assumed
# Reference: input RNA pool
# Direction: higher = stronger binding
Sequence,bound/input enrichment
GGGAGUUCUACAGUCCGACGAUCUCUUAACUUAUUCAUUUCUUAUUUUUAUAUAGCUAGAUAAAUAUUGUUAGUCUUAGUCAAUAGCUCACAUUUUUUGAGAAGCAUGCCCUCCCUGUCCAUUUGUCUUAUAACAUGACCCAGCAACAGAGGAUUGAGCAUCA,189 ratio
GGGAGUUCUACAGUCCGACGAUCCUGGCCUUCUGAGCAUCAGGGGCCUCCUUUCGUAUAGUCACUGCUUCUGCAUCAGAUACUUUCAGCUGCAACUCCCUGCAGGGUGGGGCACCCAUUUCAGGCAGAAGGUUUUGGUACCCUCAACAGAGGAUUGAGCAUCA,0.254 ratio
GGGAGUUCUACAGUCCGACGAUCCAGUCCCCGUGUCCCAGGGGACAAUGUUGUGAACAAAAACUCAAAGCGGACCCUCUACUGUAGUUGAUGAUUCUCGAAAUGUGCUAUUAUUGUUUGUCUUUUUUUUUUUUUUUUUAAAGACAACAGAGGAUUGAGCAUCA,1.86 ratio
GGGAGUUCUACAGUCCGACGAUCUCUGGUCACACUCGUGUGUAUGGUGUUUGCUUUGUGGACACUUCACUGGGCAAGUUUUUCAUCGGCCAGUUUUCAGAUGAUCGCCAUUGUUCCAGAUUUAGGACGCUAGUGGCUCACUAUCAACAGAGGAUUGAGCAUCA,0.29 ratio
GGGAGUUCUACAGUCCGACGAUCGGACAUCUUGUCAGGAUUUAUGUUCCUGUGAAACAAGUGAACACUCUGAUACACUUCAUCUGCUUGUACAUCUGUAUGAUAGAGAAAUGUAAAUAUGAAUAUAUUUACAAUGUGUCACUUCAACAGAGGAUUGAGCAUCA,0.113 ratio
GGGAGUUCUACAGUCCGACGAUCGGACAUCUGUCAAAUUGUUAUGUUCCUGUGAAACAAGUGAACACUCUGAUACACUUCAUCUGCUUGUACAUCUGUAUGAUAGAGAAACAGAAAUCUAUUAAUCCAAGCAAUGUGUCACUUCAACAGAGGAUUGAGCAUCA,0.123 ratio
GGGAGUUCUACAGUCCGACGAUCGGAAGUACAAUGAUGGAGAUUGAUGGUGACAAAGGCAAGCAGGGCGGGCCCACCUACUACAUAGACACCAAUGCCCUGCGUGUUCCGAGGGAGAAUAUGGAGGCCAUCUCACCACUCAAGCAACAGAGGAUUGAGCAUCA,0.233 ratio
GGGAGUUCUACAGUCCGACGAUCAUGGAGAAGGAUUCUCUGCCUCGCUUUGUGCGCUCUGAGUUUUAUCAGGAGCUAAUCAAGUAGUCAUCUGGUCAGGCUUCCAAAAGUUGCCCUGUGAGUUGAGUUACAUCCUUUGUAGCACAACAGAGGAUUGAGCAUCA,0.147 ratio
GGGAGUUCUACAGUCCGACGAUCUCUUUAAAAAAAAAAUUACCUUUUCUGACAGUGCUUUCCCUCCCAUAGAUCCACGUUCAAGCUCAAAGAGCAAAGGCUUUGCACGGAGCUCAAACAUAAAAGAAAGAUUUUUGAGACAGACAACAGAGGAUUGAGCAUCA,0.844 ratio
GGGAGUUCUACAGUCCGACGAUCUUGAAAACUGAUUCAAGUAAGUUUGAGUAUCACAAUGUUAGCUUUCUAAUUCCAUAAAAGUACUUGGUUUUUACAGUUUAUAAUCUGACAUCACCCCCCGUUUAUAAAGAUCAGCUUACUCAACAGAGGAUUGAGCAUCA,0.47 ratio
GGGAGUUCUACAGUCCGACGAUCCUGUGACCACAAGAUCCUACCUGAGUGGCAGCUGAAGCACUUUUCUUCUCCUUGCCUGAACCCCCCCCCACUGCCCCCCCAUCCCCCGCAGAAUUCCGAGAUGUUGCCUCUGCACGGUUCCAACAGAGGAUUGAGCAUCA,1.32 ratio

# Sample 6
# Target: ATF2, bZIP domain (human)
# Method: DHFR protein complementation
# Medium: yeast
# Notes: single substitutions, most at no-binding floor
# Reference: wild-type JUN-FOS pair
# Direction: higher = stronger binding
# Starting sequence: JUN, bZIP domain (human); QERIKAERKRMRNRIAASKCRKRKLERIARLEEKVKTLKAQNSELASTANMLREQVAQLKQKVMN; partner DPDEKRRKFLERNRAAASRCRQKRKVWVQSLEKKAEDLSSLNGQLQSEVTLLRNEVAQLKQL
Substitution,binding fitness [natural log]
I28P,-1.46
V35R,-1.49
A40S,-1.27
S47N,-1.29
N42H,-1.33
R30W,-1.36
K39I,-1.4
V56K,-1.51
S47E,-1.17
L45F,-1.53
I28L,-1.26
A40T,-1.35
Q55H,-1.45
K39S,-1.4
I28A,-1.47
V56H,-1.46
E54G,-1.45
Q41E,-1.36
L59H,-1.52
T37N,-1.28

# Some of these lines once more (sample 3):
Substitution,normalised enrichment score
S6A,0.324
R5A,-0.168
K4A,0.568
R5A L7A,0.378
P2A,0.729
L9F,1.17
L7A,0.773
V3A,0.937
L13A,1.2
